Experimental data collected from several papers.
Numbered parts are unrelated; each lists some results of a single study. Changes are numbered by the printed parent chain.

Sample 1
Target: ABI1, truncated, D143A, DHFR fusion (Arabidopsis thaliana)
Method: DHFR PCA, deep sequencing
Matrix: yeast
Notes: methotrexate growth selection, single substitutions
With: (+)-ABA 1.4 µM
Relative to: wild-type fitted maximum
Reading: higher = stronger binding
Starting sequence: PYL1, truncated, DHFR fusion (Arabidopsis thaliana); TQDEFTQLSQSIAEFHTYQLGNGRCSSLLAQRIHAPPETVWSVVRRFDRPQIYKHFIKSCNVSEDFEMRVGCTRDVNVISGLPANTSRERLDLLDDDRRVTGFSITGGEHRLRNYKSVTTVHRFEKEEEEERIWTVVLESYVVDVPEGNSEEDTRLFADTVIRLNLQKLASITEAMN
| Variant | relative binding score |
| --- | --- |
| A175M | 41.8% |
| T73W | 36.3% |
| E38F | 6.52% |
| Y115W | -5.28% |
| F157T | 9.99% |

Sample 2
Target: CCNA1, cyclin fold, Cln2 fusion (human)
Method: yeast growth competition, sequencing
Matrix: yeast
Notes: weak parent motif
Relative to: not given
Reading: higher = stronger binding
Starting sequence: ORC1 docking peptide (human); PRARKRLELGNLG
| Variant | normalised enrichment score |
| --- | --- |
| L9E | 0.25 |
| N11H | 0.496 |
| G13V | 0.426 |
| L12S | 0.529 |
| A3S | 0.472 |

Sample 3
Target: Sal-like protein 4, full length isoform B (SALL4, Homo sapiens, UniProt Q9UJQ4-2, residues 1-616)
Method: universal PBM
Molecule type: double-stranded DNA, one strand shown
Matrix: in vitro
Tested at: not given
Notes: 8-mer, flanks averaged, mean of replicates
Reading: higher = stronger binding
Target sequence (chain): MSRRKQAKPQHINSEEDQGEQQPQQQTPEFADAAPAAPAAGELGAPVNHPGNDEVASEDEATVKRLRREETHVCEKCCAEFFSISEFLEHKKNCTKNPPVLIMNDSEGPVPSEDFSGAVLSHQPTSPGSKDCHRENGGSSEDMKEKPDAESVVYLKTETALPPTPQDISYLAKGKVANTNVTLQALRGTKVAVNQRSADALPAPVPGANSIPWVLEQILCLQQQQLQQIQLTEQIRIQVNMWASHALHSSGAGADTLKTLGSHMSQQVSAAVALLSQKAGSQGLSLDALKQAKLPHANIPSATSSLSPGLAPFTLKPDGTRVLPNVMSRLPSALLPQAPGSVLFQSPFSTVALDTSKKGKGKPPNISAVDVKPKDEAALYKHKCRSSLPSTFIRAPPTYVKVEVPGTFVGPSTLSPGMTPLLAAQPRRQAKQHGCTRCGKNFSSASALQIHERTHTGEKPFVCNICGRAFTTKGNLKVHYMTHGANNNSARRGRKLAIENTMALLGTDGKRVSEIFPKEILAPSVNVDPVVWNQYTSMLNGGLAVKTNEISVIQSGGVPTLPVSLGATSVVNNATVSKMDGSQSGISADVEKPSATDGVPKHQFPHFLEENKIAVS
| Oligonucleotide | E-score |
| --- | --- |
| CGTGACTA | 0.155 |
| GCAGTGGC | -0.323 |
| ATACCGAT | 0.0544 |
| GCACTATA | 0.12 |
| ACCCGCGT | -0.224 |
| GAGCTTGA | -0.179 |
| CGTCGTTC | 0.0237 |

Mixed results
| Substance | target | test | system | setting | how to read | endpoint | value |
| --- | --- | --- | --- | --- | --- | --- | --- |
| PhoQ, residues 284 288 289 292 302 303 GANMMA | PhoP, residues 12 14 15 18 19 LYFRQ (Escherichia coli, UniProt P23836) | Sort-seq, refers to: YFP reporter | E. coli | PhoQ-PhoP variant library, with: 10 µM Mg2+ | relative to: high Mg2+ state, higher = stronger signaling | fold induction | 14.7 |
